Experimental data of several laboratories.
Protocols differ between the studies behind these lines. Several values in a cell are separate wells, animals, samples, runs or records. Numbers after ± are the reported error.

For `COc1ccc(CNc2ccc3c(c2)S(=O)(=O)C=C3)cc1`, “conversion to thiol conjugate” read 30 to 40% (PBS; 50 µM, 24 h, pH 7.4, 37 °C, together with: equimolar thiol).
The ΔTm of `O=C(N/N=C/c1ccc(C[n+]2ccccc2)cc1)c1cccc(C(=O)N/N=C/c2ccc(C[n+]3ccccc3)cc2)n1` is reported as 0.8 ± 0.2 °C (hp2 hairpin duplex DNA; FRET melting; 1 µM).
`CCCCN1C(=O)c2cccc3c(NCCCCN4CCOCC4)ccc(c23)C1=O` has a Stokes shift of 90 nm (methanol).
`CNc1cc(N)c(C(N)=O)c[n+]1C`: “plasma concentration of product” 102 nM and 108 nM (substrate, refers to: methylated product; rats, plasma; oral, 30 mg/kg, 0.25 h).
`COc1cc2ncnc(Oc3ccc(Nc4nccc5[nH]cc(-c6ccc(F)cc6)c(=O)c45)cc3F)c2cc1OC` gave a Vd of 0.69 L/kg (male beagle dog, plasma; intravenous, 2 mg/kg).
`CC(C)(O)c1ncc([S@](N)(=O)=NC(=O)Nc2c3c(cc4c2CCC4)CCC3)s1`: “subjects with adverse events” 17% (refers to: Vascular disorders; healthy human volunteers; oral, 100 mg once daily, 14 days, spray-dried dispersion).
With `CN([O-])C(=O)CN1CCNCCN(CC(=O)N(C)[O-])CC1.[89Zr+4]` the tracer uptake was 0.18 %ID/g (mouse, lung; intravenous, 4 h).
`CN(O)C(=O)CCC(=O)NCCCN(CCCCN(CCCNC(=O)CCC(=O)N(C)O)C(=O)CCC(=O)N(C)O)C(=O)CCC(=O)N(C)O.[89Zr]` gave an intact complex of 98.1 ± 1.8% (radio-TLC; aqueous buffer; 3 d, pH 7.2, 37 °C, 89Zr-labelled complex, together with: MgCl2 10-fold excess).
`COc1ccc(/C=C/c2nc3c(Cl)ncnc3[nH]2)cc1OC` has a purity of 99.2% (HPLC; solution; after 1 h light exposure).
The binding of `C=CC(=O)Nc1cccc(Cn2ncc3cnc(Nc4cnn(CCOC)c4)nc32)c1` is reported as 50% (human IKK-epsilon; KINOMEscan; 100 nM; baseline: control).
`CC[C@H](C)[C@@H]1NC(=O)[C@H](Cc2ccc(O)cc2)NC(=O)CCCSC[C@@H](C(=O)N(CC(=O)N[C@@H](CC(C)C)C(=O)NCC(N)=O)Cc2ccc(F)cc2)NC(=O)[C@H](CC(N)=O)NC(=O)[C@H](CCC(N)=O)NC1=O` has a Cmax of 0.032 ng/mL (healthy human females, plasma; intranasal, 50 µg single dose).
`C=CC(=O)Nc1cc(Nc2nccc(-c3c[nH]c4ccccc34)n2)c(OC)cc1N(C)CCN(C)C` gave a recovery of 88.1% (storage stability; human dried blood spots; 5 h, on ice, LLOQ level).
`CCCCN1C(=O)c2cccc3c(NCCCCCCCCN4CCOCC4)ccc(c23)C1=O` has a Stokes shift of 106 nm (water; pH 6.0).
With `COC(=O)CN1CCN(Cc2cc(-c3nc4ccccc4s3)cc(OC)c2O)CCN(Cc2cc(-c3nc4ccccc4s3)cc(OC)c2O)CC1` the pKa3 was 7.3 (UV-vis spectrophotometric titration; aqueous NaCl 0.1 M; 20 µM, 25 °C, pH 3 to 11).
`Fc1cccc(COc2ccc(Nc3ncnc4ccc(-c5cccc(N6CCSCC6)c5)cc34)cc2Cl)c1` gave an EC50 of 10 µM (Leishmania major; intracellular amastigote growth, luciferase; RAW264.7 macrophages).
`N#C[C@@H]1CC(F)(F)CN1C(=O)CNC(=O)c1ccnc2c(NC(=O)C(CCCCNC(=O)CCOCCOCCOCCOCCOCCOCCNC(=O)CN3CCN(CC(=O)[O-])CCN(CC(=O)[O-])CCN(CC(=O)[O-])CC3)NC(=O)CCCc3ccc(I)cc3)cccc12.[68Ga+3]` (some centres unmarked) has a radiochemical stability of 99.15 ± 0.6% (PBS; 60 min, 37 °C, 68Ga-labelled).
For `O=S(=O)(c1ccc(-c2ccc3ncnc(Nc4ccc(O)c(Cl)c4)c3c2)cc1)N1CCOCC1`, the EC50 was over 15 µM (Leishmania major; intracellular amastigote growth, luciferase; RAW264.7 macrophages).
`[2H]C([2H])([18F])Oc1cc(C(=O)OCC2CCN(CCCC)CC2)ccc1N` — result for “parent radioligand fraction”: 60.5% (rhesus monkey, arterial plasma; iv, 3.02 min).
Under “cumulative recovery of radioactivity”, `Cc1cc(-c2ccc(C(=O)[C@@H]3CCCC[C@H]3C(=O)Nc3cnn4c3C(=O)NCC4)cc2)[nH]n1` is recorded as 5.87% (human, urine; oral, 200 mg, 0-120 h; baseline: dose).
For `O=C(Nc1cnccc1-c1ccc([18F])cc1)c1ccnc(NC(=O)C2CC2)c1`, the mean SUV was 1.3 (ex vivo biodistribution, gamma counting; GSK-3β overexpressing transgenic mouse, late stage, right kidney; intravenous, 120 min post-injection, together with: tariquidar 15 mg/kg iv, at least 2 h before tracer).
The tracer uptake of `Cc1nc(N)nc2c1C(=O)N[C@@H](c1ccc(F)cc1-c1cccc(O[11CH3])n1)C2` is reported as 4 ± 0.1 %ID (ex vivo biodistribution; mice, MDA-MB-231 subcutaneous xenograft, blood; 60 min post-injection, baseline, vehicle pre-treatment).
`O=S(=O)(Nc1ccc(OC(F)(F)F)cc1)N1CCCC(C2c3ccc(F)cc3CCc3cc(F)ccc32)C1` (centres unmarked) has a brain concentration of 191 ng/g (mouse, brain homogenate; oral, 30 mg/kg, 2 h).
For `C=C(NC(=O)c1csc(-c2nc3c(cc2O)-c2nc(cs2)C(=O)NC(C(C)O)C(=O)NC(=C(C)OC)c2nc(cs2)C(=O)NC2c4nc(cs4)C(=O)NC(COC(=O)c4c5c6c(cccc6n4O)COC(=O)C(OC4CC(C)(O)C(N(C)C)C(C)O4)C2OC5)c2nc-3cs2)n1)C(N)=O` (centres unmarked), “volume of distribution” read 0.932 L/kg (cynomolgus monkey, both sexes, plasma; intravenous infusion, 1 mg/kg single dose).
With `CCCCCCCOc1ccc(CC[C@](N)(CO)COP(=O)(O)O)cc1C(F)(F)F` the renal clearance was 0.00733 mL/min (healthy men, urine and plasma; oral, 0.125 mg once daily, day 21, fed state).
`CCCCN1C(=O)c2cccc3c(NCCCCCN4CCOCC4)ccc(c23)C1=O` gave a Stokes shift of 101 nm (water; pH 6.0).
For `CC#CC(=O)N1CCC[C@H]1c1nc(-c2ccc(C(=O)Nc3ccccn3)cc2)c2c(N)nccn12`, the trough concentration was 0.322 ng/mL (mouse, TMD8 tumour-bearing, plasma; 7.5 mg/kg twice daily, 12 h).
For `N#C[C@@H]1CC(F)(F)CN1C(=O)CNC(=O)c1ccnc2c(NC(=O)[C@@H](N)CCCCNC(=O)CCOCCOCCOCCOCCOCCOCCNC(=O)CN3CCN(CC(=O)[O-])CCN(CC(=O)[O-])CCN(CC(=O)[O-])CC3)cccc12.[177Lu+3]`, the radiochemical stability was 99.12 ± 0.6% (human serum; 4 h, 37 °C, 177Lu-labelled).
With `COc1cccc(OC)c1-c1cc(C(=O)NC2(C(=O)O)C3CC4CC(C3)CC2C4)nn1-c1ccc(C(=O)NCCNC(=O)[C@H](CCCCNC(=O)[C@H](CC(C)C)NC(=O)C2OC2C(=O)O)NC(=O)CN2CCN(CC(=O)[O-])CCN(CC(=O)[O-])CCN(CC(=O)[O-])CC2)cc1C(C)C.[177Lu+3]` (mixture of isomers) the tumour-to-stomach ratio was 30.8 (mouse HT-29 xenograft; 24 h, biodistribution; baseline: tumour over stomach).
`CNc1cc(C)c(C(N)=O)cn1` has a plasma concentration of 106000 nM (Han Wistar rats, male, plasma; oral, 30 mg/kg, 0.50 h).
For `Cc1cc(F)ccc1-c1cc(N2C[C@H]3COC(O)CN3C[C@H]2CO)ncc1N(C)C(=O)C(C)(C)c1cc(C(F)(F)F)cc(C(F)(F)F)c1` (some centres unmarked), “fraction unbound in microsomes” read 0.591 (human liver microsomes).
`[123I]c1ccc2nc(-c3ccc(-n4ccnn4)nc3)cn2c1` gave a tracer uptake of 0.11 %ID/g (male Wistar rat, spleen; intravenous, 4 MBq, 1 h).
For `CCCCN1C(=O)c2cccc3c(NCCCCCCN4CCOCC4)ccc(c23)C1=O`, the Stokes shift was 83 nm (DMF).
The fraction unbound of `OCC1OC(n2cnc3c(NCc4ccc(Br)s4)ncnc32)C(O)C1O` (centres unmarked) is reported as 0.145 (equilibrium dialysis; human plasma; 0.05 µg/mL, 4 h, pH 7.4).
For `O=C1c2sc(-c3ccc(N4CCC(F)C4)nc3F)nc2CCN1c1cccnc1` (centres unmarked), the concentration was 157 ng/g and 260 ng/g and 218 ng/g (CD1 mouse, brain; i.v., dose not given, 0.25 h).
With `CCCCN1C(=O)c2cccc3c(NCCCCCCCCCCN4CCOCC4)ccc(c23)C1=O` the Stokes shift was 95 nm (methanol).
With `N#C[C@@H]1CC(F)(F)CN1C(=O)CNC(=O)c1ccnc2c(NC(=O)CCOCCOCCOCCOCCOCCOCCNC(=O)C(CCCCNC(=O)CN3CCN(CC(=O)[O-])CCN(CC(=O)[O-])CCN(CC(=O)[O-])CC3)NC(=O)CCCc3ccc(I)cc3)cccc12.[68Ga+3]` (some centres unmarked) the radiochemical stability was 97.79 ± 0.6% (human serum; 120 min, 37 °C, 68Ga-labelled).
For `CN1CCC[C@]1(C)/C=C/S(=O)(=O)NC(=O)Nc1c2c(cc3c1CCC3)CCC2`, “subjects with adverse event” read 16.7% (refers to: Pyrexia, possibly related; human; oral, 50 mg twice daily, 14 days, multiple ascending dose).
With `C/C(N)=N/C(=N\S(=O)(=O)c1ccc(C(F)(F)F)cc1)N1C[C@H](c2ccccc2)C(c2ccc(Cl)cc2)=N1` the Cmax was 3760 ng/mL (male C57BL/6 mouse, muscle; intravenous, 10 mg/kg).
The mean SUV of `O=C(Nc1cnccc1-c1ccc([18F])nc1)c1ccnc(NC(=O)C2CC2)c1` is reported as 0.244 (ex vivo gamma counting; GSK-3β transgenic mice, early-stage, left kidney; intravenous, 120 min).
For `CCC1C=C(C)C(O)C(C)CC(OC)C2OC(O)(C(=O)C(=O)N3CCCCC3C(=O)OC(C(C)=CC3CCC(O)C(OC)C3)C(C)C(O)CC1=O)C(C)CC2OC` (centres unmarked), the concentration was 22800 ng/g (mouse C57BL/6, ear skin; topical, 10 µL of 37.1 mM, 24 h, 3% propylene glycol).
For `CC(C)Cc1ccc(C(C)C(=O)NC(CCCCNC(=O)CCOCCOCCOCCOCCOCCOCCNC(=O)CN2CCN(CC(=O)[O-])CCN(CC(=O)[O-])CCN(CC(=O)[O-])CC2)C(=O)Nc2cccc3c(C(=O)NCC(=O)N4CC(F)(F)C[C@H]4C#N)ccnc23)cc1.[68Ga+3]` (some centres unmarked), the radiochemical stability was 99.9 ± 1.2% (PBS; 60 min, 37 °C, 68Ga-labelled).
With `CCC1(CC)CC(=O)N(C2CCOc3ccc(C(=O)NC4CC(C)(C)Oc5ccccc54)cc32)C(=N)N1` (centres unmarked) the Vd was 4.5 L/kg (male beagle dog, plasma; intravenous).
`CCCCN1C(=O)c2cccc3c(NCCCN4CCOCC4)ccc(c23)C1=O` gave a fluorescence lifetime of 10.3 ns (dichloromethane).
`CCC1CNC(CC)CN(C(C(=O)[O-])c2ccc(C(=O)[O-])cc2)C(CC)CN(CC(=O)[O-])C(CC)CN1.[Mn+2]` (centres unmarked) has a Mn uptake of 1.4 ± 0.06% (ICP-MS; BALB/c mice, kidney; intravenous, 0.05 mmol/kg, 1440 min; baseline: injected dose).

Repeated from above:
For `O=C(Nc1cnccc1-c1ccc([18F])cc1)c1ccnc(NC(=O)C2CC2)c1`, the mean SUV was 1.3 (ex vivo biodistribution, gamma counting; GSK-3β overexpressing transgenic mouse, late stage, right kidney; intravenous, 120 min post-injection, together with: tariquidar 15 mg/kg iv, at least 2 h before tracer).
For `N#C[C@@H]1CC(F)(F)CN1C(=O)CNC(=O)c1ccnc2c(NC(=O)[C@@H](N)CCCCNC(=O)CCOCCOCCOCCOCCOCCOCCNC(=O)CN3CCN(CC(=O)[O-])CCN(CC(=O)[O-])CCN(CC(=O)[O-])CC3)cccc12.[177Lu+3]`, the radiochemical stability was 99.12 ± 0.6% (human serum; 4 h, 37 °C, 177Lu-labelled).
The fraction unbound of `OCC1OC(n2cnc3c(NCc4ccc(Br)s4)ncnc32)C(O)C1O` (centres unmarked) is reported as 0.145 (equilibrium dialysis; human plasma; 0.05 µg/mL, 4 h, pH 7.4).
